Assay results collected from several papers.
Every numbered part comes from another study and shows a few of its results, in no order. Positions count from the first letter of the parent shown.

Sample 1
Target: Interferon regulatory factor 5, full length, phosphomimetic (IRF5, Homo sapiens, UniProt Q13568-2, residues 1-514, S451D/S453D/S456D/S462D)
Technique: protein-binding microarray
Form: double-stranded DNA, one strand shown
Matrix: in vitro
Concentration: 940 nM top
Notes: 60-bp whole probe
Added: salmon DNA 0.4 mg/ml
Baseline: random background probes
Direction: higher = stronger binding
All sequences stand within: GCCTAGCAC … GTCTTGATTCGCTTGACGCTGCTG
| Sequence | fitted relative affinity [z-score] |
| --- | --- |
| AATAGCTTTTCATTTTTTAACGTGCTA | 0.782 |
| GAAGATATCAGTCTCGAGACGTGCTAG | 0.942 |
| TCACTTCTAGACTTCTCACTGTGCTAG | 0.751 |
| TTAGGTTTCGAGTATCGGTTAGTGCTA | 8.41 |
| GACCAACTGGGGTATCGAGACGTGCTA | 1.18 |
| AACGGTCTCCTTCTCCTGACGTGCTAG | 0.397 |
| GACGATCTCAGTATCGAGTCGTGCTAG | 3.47 |
| GACGGTTTCGGGTTTCGGGATGTGCTA | 8.99 |
| GTGATCCGTCCGCCTCAGCCGTGCTAG | -0.164 |
| GACGGTTTCGGTTTAGGGACGTGCTAG | 12.8 |
| TCAGGTATTTTTTTGTAACTGTGCTAG | 0.619 |
| TTAAGTATCGACACTGGGTTAGTGCTA | 4.93 |
| TTAGAGATCGGGACTGGATTAGTGCTA | -0.282 |
| TTAGATATCGAGTATCGATTAGTGCTA | 3.72 |
| ATGTGTTTACATATGTTTTTGTGCTAG | -0.0369 |
| ATGAAAATCTCAATGGGTTAGTGCTAG | -0.0564 |
| CTTCCTCTTTCACTGGTCCTGTGCTAG | 1.6 |
| TTAGGTTTCCTTCTCCATTAGTGCTAG | 1.83 |
| TTAGGTTTCCTACTGCGTTAGTGCTAG | 0.542 |
| CCCATTCCAGGGTTTTATGGAGTGCTA | -0.351 |
| GACAGTTTCGGACTGGGGACGTGCTAG | 6.49 |
| TGACCTGCTCCAAACACCTCGTGCTAG | 0.279 |
| TAAGATCTCAGTTTCGATTAGTGCTAG | 7.81 |
| TTCGGTATCGGGTTTCGGTTAGTGCTA | 8.65 |
| GGATGACTCCCTCTCTGGCCGTGCTAG | 0.0938 |

Sample 2
Target: Histone acetyltransferase KAT6A, both winged helices, GST fusion (KAT6A, Homo sapiens, UniProt Q92794, residues 1-181)
Technique: protein binding microarray
Form: double-stranded DNA, one strand shown
Matrix: in vitro
Concentration: not given
Notes: 8-mer, flanks averaged, mean of 2 arrays, mostly near background
Baseline: not given
Direction: higher = stronger binding
Target sequence (chain): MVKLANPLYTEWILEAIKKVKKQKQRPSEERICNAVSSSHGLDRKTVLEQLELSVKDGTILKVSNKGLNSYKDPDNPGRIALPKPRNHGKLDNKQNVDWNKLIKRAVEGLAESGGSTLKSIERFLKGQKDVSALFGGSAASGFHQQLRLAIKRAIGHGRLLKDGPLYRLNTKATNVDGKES
| Sequence | E-score |
| --- | --- |
| GTATGTCA | -0.0395 |
| CCAATAGA | -0.16 |
| CGGGTCGA | 0.0854 |
| ACCAGTGA | -0.111 |
| CATCTGTA | 0.0478 |
| CCTCAACA | -0.0912 |
| CGGATAAG | 0.169 |
| CAGCCCTA | -0.0354 |
| ACGTAGGG | -0.172 |
| ACATAAAG | -0.202 |
| GGTGGGTA | -0.0734 |
| TGCATAAA | -0.161 |
| GGTATTAA | 0.0185 |
| AGAGCGGA | 0.13 |
| AAGGTTGA | -0.0442 |
| GGCTACCC | -0.0561 |
| GGGCTGAA | 0.0678 |
| GAGGAGGC | -0.0585 |
| AGTATGAT | -0.085 |
| CCCCTCAC | -0.0874 |
| TGGGTGAA | 0.0398 |
| CCGTGAGG | 0.153 |
| TATTAACA | 0.0864 |

Sample 3
Target: RING finger protein unkempt homolog, zinc fingers 1-6, SBP tag (UNK, Homo sapiens, UniProt Q9C0B0, residues 30-357)
UniProt Q9C0B0, sequence (30-357, looked up): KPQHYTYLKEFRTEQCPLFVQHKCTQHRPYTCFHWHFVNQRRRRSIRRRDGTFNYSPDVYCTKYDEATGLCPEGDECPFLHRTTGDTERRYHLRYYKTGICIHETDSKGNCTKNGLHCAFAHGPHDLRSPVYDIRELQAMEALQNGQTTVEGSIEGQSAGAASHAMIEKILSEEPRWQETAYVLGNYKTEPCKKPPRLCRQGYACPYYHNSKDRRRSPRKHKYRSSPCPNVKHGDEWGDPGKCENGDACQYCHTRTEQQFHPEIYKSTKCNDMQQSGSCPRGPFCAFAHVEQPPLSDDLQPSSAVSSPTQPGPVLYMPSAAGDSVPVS
Technique: RNA Bind-n-Seq
Form: RNA
Matrix: in vitro
Concentration: 100 nM
Notes: RNA with constant flanks, vertebrate orthologous sites, ends assumed
Baseline: input RNA pool
Direction: higher = stronger binding
All sequences stand within: GGGAGUUCUACAGUCCGACGAUC … CAACAGAGGAUUGAGCAUCA
| Sequence | bound/input enrichment [ratio] |
| --- | --- |
| GGAGCUUGUGUUUGGCUGCGCCUGCGUCACAAGCUGCUGCAACCAGAAUAAAGAGUUUCCGAGCCUGCGUCUCGCUUGGGUGCAGGGAGUGGGCUUUGCGCACAGGGCUCGGCGCUGACG | 0.352 |
| UGAGGGAGAGAUUCCUGUGAUUUUUAAUAUUUUGUUUGUUCUUUUUAAGAUACUCCAGUAUGCCAUUUUUAAUGGGACUGGUGUAUUAACAGUUCUCUCCUAAGUCUUCAUAAAGAAUCA | 0.294 |
| UUUUUUUCCAGGUGGGAUGUAGUGGAAAAGUCAUAGGAAUUGAUCACAUUAAAGAGCUAGUAGAUGACUCAAUAAACAACGUCAGAAAGGAUGACCCAACACUUUUGUCUUCAGGGAGAG | 0.817 |
| AAAUAUACUUCAUGCCAUGGACUCCGUAUCGCACCGAUACUUUGAUAGAAUAUGCUUCUUUAGAGGACUUCCAAAAUGGACGCCAGCAGACGACGUAUAAACUGCCAAAUAGAGUGGAUG | 0.827 |
| AGUCUCUUCUCCCCUGACCUGAUUUUAAAAGGCCCCUUUUUUUCUUUUCUUUUUUUAGACAUAUGUAGUAAUAGAAAGAUUUAAUUUGGGCAACUUUGAUUCUUAAAAGAGAAAGCAAAG | 0.634 |
| AAGUCGGUGGUUGUACAUUAUUUCAUUUAGAAAAUAUGAAAACUCAUUUUGUUUUGAAGAUAGGUAUUAAACUGAAAUAGCUAUUACGUUCUUGAAAAAUGGGGCAGGUGUGCCCUUCCC | 0.32 |
| AAAUCAGCCCCAGUUUCUAACAACUGACACCCUAAAGAUUUAGAGGUUUACAACACAAUCUAGUUUACGAAGAAAUCUUGUGCUAGAAUACUUUUUAAAGUAUUUUUGAAUAUCCUUAAA | 0.47 |
| UUAAAGCCAUUUUUUCAUGUUUCCUGUAAAUAAUGGAUAAUCAUUUUUUAUUUUAUUUUUAAGUGCUGUUUUAACAAUGUGGAUAGACCAUAAAUGUACUUGCUAAAAUCAUUCCUUUUU | 0.762 |
| UAUUAGUGUCAUACCAGCAUAUUAACCUCUCGUCUGUGCACAGCUUCAAAUGUUACCGUCUAGUUAGAUUUUUAUUUAAAAUAUGAAAAACUGCUUUUCCCAAGAUGUUUUUUAAAAACA | 1.53 |
| AUAUUGUAUGUAGAGAAAAAUUUUCAUUGACCCCAUUGUGAAAUUCCCUAGCAAUUUAUUUAGAAUCUUAAUUUUUCUAAUUGAAGCUCACUGUAUUAGUCAUUUUUAGCAUAAUUAAAA | 2.45 |
| UUCAGUGUCCCUCCCGCGGUGACAUCCGUACUGUCCCCGGCCAGGGCUGAGGACCUGCAUUAGAAACAUUUUUUAAAUUGUCGUACAGGAAGAGAUGUGUCUAACACAGCAUCUCAAAGC | 0.698 |

Sample 4
Target: RNA binding protein fox-1 homolog 2, RRM domain, GST-SBP tag (RBFOX2, Homo sapiens, UniProt O43251-10, residues 100-194)
Technique: RNA Bind-n-Seq
Form: RNA
Matrix: in vitro
Concentration: 365 nM
Notes: natural RNA segment, single round, ends assumed
Baseline: no-protein control
Direction: higher = stronger binding
All sequences stand within: GGGAGUUCUACAGUCCGACGAUC … UGGAAUUCUCGGGUGCCAA
Residues (chain): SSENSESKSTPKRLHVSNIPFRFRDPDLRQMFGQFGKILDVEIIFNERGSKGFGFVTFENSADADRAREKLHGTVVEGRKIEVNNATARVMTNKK
| Sequence | RBNS enrichment (R) |
| --- | --- |
| GAGGUUCAGGAUUGCUAAGCGAGUGCUCUACCACUGAUGUGCAUCCUUAGUCCUUGUUUGCUUUCUAAACCAAACUGGGAACACAUACAACAUUCAUCAUUUUACAUCCA | 0.465 |
| GUUUAGUGUCGUUUGCCAUGGUAUUUCACAGUGAAACAUGGAUACUCUCCACACAUCAUUUACUUCAUGCUGUGUACUUAUGUACUGGUUUUUGCAUUUUACUCACUUGA | 0.625 |
| AAAGGAGCUGGUAGAAGCAGAGAGUGUAUUUCCCAUCUUGAAUGGGCCGGAGGUCUCGAAGCCUCAGCUUUUACUUUGUGAGCUGCAACACUCGCUUCAGCUCAGACUCA | 0.254 |
| GAUGUUUUAUAUAUAGAGAGUAGUCUCAUUAGUUUUUGUUACUGUAAUGUUUGAAGUCUCAAAUGCACCGUAUUACGGUAAAUAACAUGGUUUUGAAAACUUUUUUUUAU | 0.758 |
| GAUGGACCAAAGCAGUGUCUUCUCAUGCGCUAACAUUGAUGAAUAUUGUUUCACACAAAAAUUAAAAGUUUCCUAAUUAAUGUUGUAUUCAUAUAUGUAGGCUCUGAAAU | 0.449 |
| UUUGCUGGCCCCCAAGCUGUUGUUUGUUAGGUGAGGUUAAGUAGGGCUCUUCUGGUCCUGUGCAUACCUAUUGCCUUUGACAGAACGGUACAGUUUGUUUAUGCAGGAGG | 0.387 |
| CCUGUACCCUGGUGUAGCUUUUGUGUUGAAGACACUCUUGGGUGUGCACCCUAUUCAGGUCAGGGACACUGCCACCUCAUGGUCUGAUUCAGGGGCAUUUUUUUUUUUAG | 0.619 |
| AAUGUAGGAGAGAAUUAAGAAUCUGUUAAUUAAAAUCCAAACAGAGCUUAUUUCAGUAGUCAAGUUACCUGACAUGAUAAUUAUUUCUGCAGGAUAAUUGAUGUUUUAUG | 0.366 |
| UAAUUGAACCACUAGGAAGUGUAUUUUCUUUUCUUUUUCUGCCAACUUUUUGGUGGCAUUUGUAAAAGCUGAUAUAAAAGGCUCUGAGAUGUUAUUUUCAGUUAUUCCAU | 0.306 |
| UGCUCUUCCCCAAGGAACUGCUCCCACCUCAGCACGUGGAGGCCUCUCACGGUCCUCCUUCCUGGGACCUGAGCAGGUUUGGUGAAAGCCACCGUCCUCCGUGACACACG | 0.299 |
| GGGCUCUCUGCUGUACAUAUUUGAGACUAGUUUUUAUUCCUUGUGAAGAUGAUAUACUAUUUUUGUUAAGCGUGUCUGUAUUUAUGUGUGAGGAGCUGCUGGCUUGCAGU | 0.407 |
| GGGCUGUCCAGAGCUGCAGCAGGGCUUUGCACGGAAGGGGUGGCCCUGUUAGAGUUGCUUCUCCUCUAGUUUGUAACUUACUGGACUUUUGUGGAAAAUAUCAGCGUCGC | 1.22 |

Sample 5
Target: MAFG, bZIP domain (human)
Technique: DHFR protein complementation
Matrix: yeast
Notes: single substitutions, most at no-binding floor
Baseline: wild-type JUN-FOS pair
Direction: higher = stronger binding
Starting sequence: JUN, bZIP domain (human); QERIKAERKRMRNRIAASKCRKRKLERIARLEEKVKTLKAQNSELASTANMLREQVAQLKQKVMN; partner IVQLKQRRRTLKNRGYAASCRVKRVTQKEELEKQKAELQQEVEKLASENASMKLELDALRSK
| Variant | binding fitness [natural log] |
| --- | --- |
| L31W | -1.46 |
| E54G | -1.51 |
| A40Q | -1.22 |
| S47F | -1.53 |
| S43M | -1.3 |
| T37K | -1.27 |
| R53H | -1.49 |
| T48Q | -1.26 |
| M51P | -1.42 |
| N42E | -1.41 |
| E32C | -1.53 |
| V56N | -1.54 |
| L38P | -1.47 |
| E32S | -1.35 |
| L52H | -1.56 |
| R30T | -1.5 |
| S43P | -1.52 |
| E44L | -1.36 |
| S43V | -1.26 |
| E32P | -1.52 |
| L38F | -1.34 |
| S47K | -1.13 |
| L52R | -1.51 |
